# Results of several laboratories.
# Compare with care: the assays were run in different laboratories. Several values in a cell are separate wells, animals, samples, runs or records. ± gives the spread as reported.
Compound,target or system,assay,test system,setting,how to read,measurement,result
O=C(O)CCCOc1ccc(F)cc1-c1cc(-c2ccccc2C(F)(F)F)n(-c2ccccc2)n1,,,"male Crl:CD(SD) rats, heart","intravenous, 25 µg/kg, 14 d",,organ weight,1.39 ± 0.09 g
CCc1ccc(CC/C=C/c2ccc3c(c2)C(=O)CC3)cc1,,,"Sprague-Dawley rat, female","oral, 450 mg/kg/day, 14 days",,CK serum activity,350 U/L
C1=Cc2nc1cc1ccc([n-]1)c(-c1ccccc1)c1nc(cc3ccc([n-]3)c2-c2ccccc2)C=C1.CC(=O)[O-].[Mn+3],,LC-MS/MS,"Sprague-Dawley rat, plasma","oral gavage, dose not given, 360 min, individual rat Rat2",,plasma concentration,121 ng/mL
CN1CC[C@@H](c2c(O)cc(O)c3c(=O)cc(-c4ccc(C(F)(F)F)cc4Cl)oc23)[C@@H]1CO,,measured: Neutropenia,B-cell malignancies or AML,"oral, 100 mg, continuous dosing",,patients with adverse event,0%
CCN(CC)CCNC(=O)c1[nH]c2ccccc2c1Sc1ccc(Cl)cc1,Vero-E6,CellTiter-Glo ATP,,"concentration not given, 72 h, second round 5-point","baseline: DMSO 0%, hyamine -100%, more negative, more toxic",cytotoxicity efficacy,0%
COc1ncccc1-c1cnn2ccc(N3CCN(C(=O)OC(C)C)CC3)nc12,,,"rat, CCI mechanical hyperalgesia model, plasma","oral, 10 mg/kg, 210 min",,drug concentration,1400 nM
C[C@]1(CO)Cc2ncn(-c3ccc(C#N)c(Cl)c3)c2C(=O)O1,,,human,40 mg single dose,,subjects with any TEAE,0%
CC(=O)c1c(C)c2cnc(Nc3ccc(C4CCN(CCS(C)(=O)=O)CC4)cn3)nc2n(C2CCCC2)c1=O,,,"human patients, plasma","oral, 100 mg twice daily, day 21 multiple doses, with: fulvestrant",,Cmax,260 ng/mL
CC(C)[C@@H](CN1CC[C@@](C)(c2cccc(O)c2)[C@@H](C)C1)NC(=O)[C@@H]1Cc2ccc(O)cc2CN1C,,,rat,"intraperitoneal, 5 mg/kg, brain over plasma AUClast",,Kp,0.3
CCCCN(C)CCCNC(=O)c1ccc2nc(N3CCCCC3)sc2c1,Vero-E6,CellTiter-Glo ATP,,"concentration not given, 72 h, second round 5-point","baseline: DMSO 0%, hyamine -100%, more negative, more toxic",cytotoxicity efficacy,0%
CC(C)C[C@H](NC(=O)[C@H](CCCCN)NC(=O)OCC1c2ccccc2-c2ccccc21)C(=O)N[C@H](C(=O)N[C@@H](Cc1ccccc1)C(=O)N[C@@H](Cc1ccccc1)C(=O)N[C@@H](CCCCN)C(=O)NCC(=O)N[C@@H](Cc1ccccc1)C(=O)N[C@@H](C)C(=O)N[C@@H](Cc1c[nH]c2ccccc12)C(=O)N[C@@H](CC(N)=O)C(=O)N[C@H](C(=O)N[C@H]1CSSC[C@@H](C(=O)N[C@@H](Cc2c[nH]cn2)C(=O)N[C@@H](CCCNC(=N)N)C(=O)N[C@@H](CCCNC(=N)N)C(=O)N[C@@H](C)C(=O)N[C@@H](CC(N)=O)C(N)=O)NC(=O)[C@H](C(C)C)NC(=O)[C@H](CCCNC(=N)N)NC(=O)[C@H](C(C)C)NC(=O)CNC(=O)[C@H](CC(N)=O)NC(=O)[C@H](CCCNC(=N)N)NC(=O)[C@H](Cc2ccc(O)cc2)NC(=O)[C@H](C(C)C)NC1=O)C(C)C)C(C)C,,,"ICR mice, blood","intraperitoneal, 10 mg/kg, day 5",,mean platelet volume,6.33 ± 0.09 fL
Cc1nc(Nc2ccc(CC(=O)O)cc2)nc(Nc2ccc(F)c(C(F)(F)F)c2)c1C,,,"mice, chronic ethanol plus binge","intraperitoneal, 0.3 mg/kg daily, ethanol diet 4 weeks, dosed last two",baseline: vehicle,body weight,no effect
COc1cc2c(Oc3ccc4[nH]c(C)cc4c3F)ccnc2cc1OCC1(N)CC1,,,paediatric refractory sarcoma patients,8 mg,,QTc prolongation incidence,0%
COc1ccc2nc3cc(Cl)ccc3c(Nc3cc(CN4CCCC4)c(O)c(CN4CCCC4)c3)c2n1,,,"mouse, blood","intraperitoneal, 28 mg/kg",,haemoglobin,166 g/L
Nc1cccc(S(=O)(=O)N2CCCN(S(=O)(=O)c3ccc4c(c3)OCCO4)CC2)c1,human coronavirus OC43,virus-induced cell killing,MRC-5,screen,,maximum inhibition,8.41%
CCN1[C@@H](C(=O)NC23CCC(C(=O)O)(CC2)CC3)[C@H](c2cccc(Cl)c2F)[C@]2(C(=O)Nc3cc(Cl)ccc32)C12CCCCC2,,,patients with advanced solid tumours,"oral, 200 mg",,Tinnitus incidence,0%
Cn1nc(NS(C)(=O)=O)c2c(Cl)ccc(-n3c([C@H](Cc4cc(F)cc(F)c4)NC(=O)Cn4nc(C(F)F)c5c4C(F)(F)[C@@H]4C[C@H]54)nc4nc(OCCC(F)(F)F)ccc4c3=O)c21,,,human,dose not given,,participants with grade 3 LDL-C increase,6%
CC1(C)[C@H](C=C(Cl)Cl)[C@H]1C(=O)OCc1cccc(Oc2ccccc2)c1,,measured: CYP2C19,"human, age 5 years, recombinant human CYP2C19",0.1 µM,,enzyme contribution to clearance,0.33%
CC[C@H](C)[C@H](NC(=O)[C@H](Cc1ccccc1)NC(=O)[C@H](CCC(=O)O)NC(=O)[C@H](CCCCNC(=O)COCCOCCNC(=O)COCCOCCNC(=O)CC[C@H](NC(=O)CCCCCCCCCCCCCCCCC(=O)O)C(=O)O)NC(=O)[C@H](C)NC(=O)[C@H](C)NC(=O)[C@H](CCC(N)=O)NC(=O)CNC(=O)[C@H](CCC(=O)O)NC(=O)[C@H](CC(C)C)NC(=O)[C@H](Cc1ccc(O)cc1)NC(=O)[C@H](CO)NC(=O)[C@H](CO)NC(=O)[C@@H](NC(=O)[C@H](CC(=O)O)NC(=O)[C@H](CO)NC(=O)[C@@H](NC(=O)[C@H](Cc1ccccc1)NC(=O)[C@@H](NC(=O)CNC(=O)[C@H](CCC(=O)O)NC(=O)C(C)(C)NC(=O)[C@@H](N)Cc1cnc[nH]1)[C@@H](C)O)[C@@H](C)O)C(C)C)C(=O)N[C@@H](C)C(=O)N[C@@H](Cc1c[nH]c2ccccc12)C(=O)N[C@@H](CC(C)C)C(=O)N[C@H](C(=O)N[C@@H](CCCNC(=N)N)C(=O)NCC(=O)N[C@@H](CCCNC(=N)N)C(=O)NCC(=O)O)C(C)C,,,healthy men and women,"oral, 14 mg once daily, with SNAC, median",,tmax at steady state,2.1 h
Cn1cc(-c2ccc3nnc(Sc4ccc5ncccc5c4)n3n2)cn1,human coronavirus OC43,virus-induced cell killing,MRC-5,screen,,maximum inhibition,11.6%
O=S(=O)(Nc1ccccc1)c1ccc(NC(=S)Nc2ccccc2)cc1,,measured: AST,"male mouse, blood","oral, 80 mg/kg daily, 14 days",,serum enzyme activity,596 U/L
COc1ccc([C@@H]2CC(=O)c3c(O)cc(O)cc3O2)cc1O,,,"male Sprague-Dawley rat, lean","oral, 100 mg/kg of neohesperidin, 24 to 36 h",,faecal excreted amount,202 ± 161 ng
CC1=C(O)C(=O)C=C2C1=CC=C1[C@@]2(C)CC[C@@]2(C)[C@@H]3C[C@](C)(C(=O)O)CC[C@]3(C)CC[C@]12C,,,rat Sprague-Dawley male,"intraperitoneal, 4 mg/kg single dose, 2 h",baseline: neocortex over plasma,tissue/plasma ratio,> 1
NCCCC[C@@H]1NC(=O)[C@@H](Cc2c[nH]c3ccccc23)NC(=O)[C@H](c2ccccc2)NC(=O)[C@@H]2C[C@@H](OC(=O)NCCN)CN2C(=O)[C@H](Cc2ccccc2)NC(=O)[C@H](Cc2ccc(OCc3ccccc3)cc2)NC1=O,,,healthy human volunteers,600 µg twice daily,,subjects with any adverse event,97%
O=C(Nc1ccccc1)C1CCN(C(=O)Oc2cccnc2)CC1,,,healthy women,"oral, 20 mg, 7 days",,adverse event Lethargy,7.1%
COc1ncnn2ccc(-c3cnc4nc(C)n(Cc5nnc([C@@H](C)F)o5)c4c3)c12,,,human patients,"oral, dose not given",,incidence of taste disorder (all grades),14.3%
O=C(O)CNCP(=O)(O)O,,ultrafiltration,cow milk whey,200 nM nominal in whole milk,,final permeate concentration,204 nM
COc1cccc(Oc2ccccc2NC(=O)CNC(=O)c2cccc3ccccc23)c1,,,"esterase-deficient SCID mice, male, blood","oral, 15 mg/kg/day, 14 days, toxicity study",,mean corpuscular volume,48 fL and 46 fL and 47 fL
CO[C@H]1C[C@@H]2CC[C@@H](C)[C@@](O)(O2)C(=O)C(=O)N2CCCC[C@H]2C(=O)O[C@H]([C@H](C)C[C@@H]2CC[C@@H](OC(=O)NCCOCCOCCOCCOCCOCCOCCOCCOCCC(=O)N3CCc4cc(Cn5nc(-c6ccc7oc(N)nc7c6)c6c(N)ncnc65)ccc4C3)[C@H](OC)C2)C[C@@H](O)[C@H](C)/C=C(\C)[C@@H](O)[C@@H](OC)C(=O)[C@H](C)C[C@H](C)/C=C/C=C/C=C/1C,,,patients with advanced solid tumours,"intravenous, dose not given, grade ≥3",,incidence of Mucositis TEAE,10.5%

# Repeated from above:
Compound,target or system,assay,test system,setting,how to read,measurement,result
Cn1nc(NS(C)(=O)=O)c2c(Cl)ccc(-n3c([C@H](Cc4cc(F)cc(F)c4)NC(=O)Cn4nc(C(F)F)c5c4C(F)(F)[C@@H]4C[C@H]54)nc4nc(OCCC(F)(F)F)ccc4c3=O)c21,,,human,dose not given,,participants with grade 3 LDL-C increase,6%
COc1cc2c(Oc3ccc4[nH]c(C)cc4c3F)ccnc2cc1OCC1(N)CC1,,,paediatric refractory sarcoma patients,8 mg,,QTc prolongation incidence,0%
CC(C)[C@@H](CN1CC[C@@](C)(c2cccc(O)c2)[C@@H](C)C1)NC(=O)[C@@H]1Cc2ccc(O)cc2CN1C,,,rat,"intraperitoneal, 5 mg/kg, brain over plasma AUClast",,Kp,0.3
C1=Cc2nc1cc1ccc([n-]1)c(-c1ccccc1)c1nc(cc3ccc([n-]3)c2-c2ccccc2)C=C1.CC(=O)[O-].[Mn+3],,LC-MS/MS,"Sprague-Dawley rat, plasma","oral gavage, dose not given, 360 min, individual rat Rat2",,plasma concentration,121 ng/mL
